Assay results gathered from unrelated publications.
Protocols differ between the studies behind these lines. Values joined by “and” are separate records of one study, mostly repeats; a detail may differ. ± marks the error that the study gave.

CC(=O)c1cnc(N)nc1N1CC[C@H]1c1nn2ccc(Cl)c2c(=O)n1-c1ccccc1 — binding (PI3Kγ; KiNativ; dog white blood cell lysate; 1 µM): 85.5%
Cc1nn(-c2cccc(N)c2)c(=O)c2cnc(Nc3ccc(N4CCNCC4)cc3)nc12 — IC50 (Calcium/calmodulin-dependent protein kinase type II subunit delta (CAMK2D, Homo sapiens, UniProt Q13557); SelectScreen kinase): 1.81 µM
CCC(=O)N(C)c1ccc(Cl)c(Cl)c1 — inhibition (Kv potassium channel; radioligand binding; 10 µM): < 10%
Cc1ncsc1-c1ccc(C(C)NC(=O)C2CC(O)CN2C(=O)C(NC(=O)CCCCCCCCCCN2CCCC(Nc3ncc(Cl)c(Nc4ccccc4S(=O)(=O)C(C)C)n3)C2)C(C)(C)C)cc1 (stereo not shown) — log2 fold change (22Rv1; RNA-seq, measured: ZNF671 mRNA; concentration not given; relative to: DMSO): -1.79
Cc1nc(N)nc2c1C(=O)N[C@@H](c1ccc(F)cc1-c1cccc(OCCF)n1)C2 — blocking (Hsp90; in vitro autoradiography; U87 tumour slice; 11 kBq/mL, room temperature, together with: blocker 10 µM): 96 ± 0.3%
Nc1ncc(-c2cc(-c3cnn(CC(F)(F)F)c3)ncc2F)nc1C(=O)NC1CNCC(F)C1 (stereo not shown) — remaining binding (MLK3; KINOMEscan; 1 µM; relative to: DMSO control): 71%
COC1CN([C@H]2CC[C@H]([C@@]3(C)Oc4c(Cl)cc(C(=O)NCc5c(SC)cc(C)[nH]c5=O)c(C)c4O3)CC2)C1 — log2 fold change (RNA-seq, measured: CBS mouse homolog; mouse, HT-1376 xenograft, whole blood; dose not given; relative to: vehicle): 0.482
O=C1c2sc(-c3ccc(N4CCC(F)C4)nc3F)nc2CCN1c1cccnc1 (stereo not shown) — exon inclusion (TDP-43 (human); CFTR exon splicing; SH-SY5Y; 0.1 µM, TDP-43-controlled CFTR minigene): 58% and 51.5% and 49.8% and 48%
COc1cc(Nc2nc(C)cc(-c3cnn4nc(OC)ccc34)n2)cc(C(F)(F)F)c1 — remaining binding (JAK1 JH1 catalytic domain, human; KINOMEscan binding; 1000 nM; relative to: control): 100%
C=C(NC(=O)c1csc(-c2nc3c(cc2O)-c2nc(cs2)C(=O)NC(C(C)O)C(=O)NC(=C(C)OC)c2nc(cs2)C(=O)NC2c4nc(cs4)C(=O)NC(COC(=O)c4c5c6c(cccc6n4O)COC(=O)C(OC4CC(C)(O)C(N(C)C)C(C)O4)C2OC5)c2nc-3cs2)n1)C(N)=O (stereo not shown) — scaled CLint (metabolic stability; monkey, liver microsomes; 2 µM): 14.7 mL/min/kg
C=CC(=O)Nc1cccc(Cn2ncc3cnc(Nc4cnn(CCOC)c4)nc32)c1 — percent of control (PRKCD human; binding, KINOMEscan; 100 nM; lower = stronger binding): 100%
CN1CCCNC(=O)c2cccc(c2)C(=O)NCCCN(C)CCCNc2cccc3c2C(=O)c2cccc(c2C3=O)NCCC1 — log2 fold change (SAS; RNA-seq, measured: MT-ND4L mRNA; 1 µM, 24 h; relative to: untreated cells): -3.61
C=CC(=O)N1CCc2ccc(-n3c(=O)ccc4cnc5ccc(-c6cnn(C)c6)cc5c43)cc21 — remaining binding (FLT3 ITD, human; KINOMEscan; 1 µM; relative to: control): 92%
CNC(=O)C1CCCN(C(=O)C2CC3CCC2N3C(=O)[C@@H]2C[C@@H](O)CN2C(=O)NCc2cccc(Cl)c2F)C1 (mixture of isomers) — remaining activity (Cytochrome P450 2C9 (CYP2C9, Homo sapiens, UniProt P11712); preincubation without NADPH; human; 0.0686 µM; relative to: negative control): 102% and 93% and 98.2%
C=CC(=O)N1[C@@H](c2ccc3c(c2)OCO3)c2[nH]c3ccccc3c2C[C@H]1C(=O)N1CCN(C)CC1 — relative co-enrichment (human cyclin E1 wild type-3xFLAG:CDK2; co-IP with TMT proteomics, measured: ELP5; concentration not given, Q8TE02; relative to: wild type DMSO): 87%
c1ccc(-c2n[nH]cc2-c2ccnc3ccccc23)nc1 — log2 fold change (PBS2 (Candida albicans); kinase binding, MIB/MS competition; Candida albicans lysate; 10 µM; relative to: DMSO): -0.19
c1ccc2c(Nc3cc(C4CCC4)[nH]n3)nc(Nc3ccc4nc[nH]c4c3)nc2c1 — remaining activity (AMPK human; enzyme activity; 250 nM): 1%
O=C(Nc1cc(OCCN2CCCC2)c2ccccc2n1)c1cccc(C(=O)Nc2cc(OCCN3CCCC3)c3ccccc3n2)n1 — ΔTm (c-kit2 G-quadruplex DNA; FRET melting; 1 µM, pH 7.4, together with: 60 mM potassium): 12.1 ± 0.9 K
Cc1cn(CC(=O)N(CCNC(=O)CN(CCNC(=O)CN(CCNC(=O)CN(CCNC(=O)CN(CCNC(=O)CN(CCNC(=O)CN(CCNC(=O)CN(CCN)C(=O)Cn2cnc3c(=O)[nH]c(N)nc32)C(=O)Cn2cnc3c(N)ncnc32)C(=O)Cn2cc(C)c(=O)[nH]c2=O)C(=O)Cn2cnc3c(=O)[nH]c(N)nc32)C(=O)Cn2cc(C)c(=O)[nH]c2=O)C(=O)Cn2cnc3c(=O)[nH]c(N)nc32)C(=O)Cn2cnc3c(N)ncnc32)CC(=O)NCCN(CC(=O)NCCOCCOCC(N)=O)C(=O)Cn2cnc3c(N)ncnc32)c(=O)[nH]c1=O — ΔTm (mismatched RNA TC; duplex formation, UV melting; relative to: complementary RNA): -15.7 °C
CN(C)CCOc1cc(NC(=O)c2cccc(C(=O)Nc3cc(OCCN(C)C)c4ccccc4n3)n2)nc2ccccc12 — ΔTm (c-kit2 G-quadruplex DNA; FRET melting; 1 µM, pH 7.4, together with: 60 mM potassium): 14.5 ± 0.7 K
N[C@H]1CC[C@H](Nc2nccc(-c3cccnc3Oc3ccc(NC(=O)NC4CC4)c4ccccc34)n2)CC1 — log2 LFQ intensity (CSNK2A1/CSNK2A3 (human); kinobead competition pulldown; HEK293/HCT116 lysate mixture; 10 µM, 1 h, 4 °C; lower = stronger competition): 31.8 and 31.7
CNS(=O)(=O)Nc1nccc(Cc2c(C)c3ccc(Oc4ncccc4F)cc3oc2=O)c1F — IC50 (RMUGS; cell viability, CellTiter-Glo; 7 days): 0.099 µM

A few entries again:
O=C1c2sc(-c3ccc(N4CCC(F)C4)nc3F)nc2CCN1c1cccnc1 (stereo not shown) — exon inclusion (TDP-43 (human); CFTR exon splicing; SH-SY5Y; 0.1 µM, TDP-43-controlled CFTR minigene): 58% and 51.5% and 49.8% and 48%
